Assay results gathered from unrelated publications.
Numbered parts are unrelated; each lists some results of a single study. Substitutions count along the parent as printed.

Sample 1
Target: CRIPT, C-terminal peptide
Technique: DHFR complementation, deep sequencing
Medium: yeast
Notes: single substitutions, model-inferred values
Relative to: wild type
Reading: higher = weaker binding
Starting sequence: ERBIN, PDZ domain 1 (human); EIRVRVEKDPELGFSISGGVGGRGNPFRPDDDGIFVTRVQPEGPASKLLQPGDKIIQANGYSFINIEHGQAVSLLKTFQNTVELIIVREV; partner TKNYKQTSV
Under “binding free energy change”, `Q40I` is recorded as 0.974 kJ/mol.
For `V90N`, “binding free energy change” read -0.297 kJ/mol.
`D31H`: “binding free energy change” 2.55 kJ/mol.
`Q70S` — result for “binding free energy change”: 0.295 kJ/mol.
`V6L` — result for “binding free energy change”: 0.486 kJ/mol.
For `P44M`, “binding free energy change” read 3.04 kJ/mol.
For `I86K`, “binding free energy change” read 4.65 kJ/mol.
For `G21D`, “binding free energy change” read -4.83 kJ/mol.
`L75I` — result for “binding free energy change”: 0.952 kJ/mol.
Under “binding free energy change”, `S15M` is recorded as 1.1 kJ/mol.
`S46R` — result for “binding free energy change”: -0.299 kJ/mol.
For `F63G`, “binding free energy change” read 7.85 kJ/mol.
For `E42G`, “binding free energy change” read 0.14 kJ/mol.
Under “binding free energy change”, `Q50T` is recorded as 0.377 kJ/mol.
`E11L`: “binding free energy change” -2.13 kJ/mol.
For `D53E`, “binding free energy change” read 2.62 kJ/mol.
`Q57A`: “binding free energy change” -0.589 kJ/mol.
`E11P`: “binding free energy change” 1.87 kJ/mol.
Under “binding free energy change”, `G69H` is recorded as 0.452 kJ/mol.
For `I56W`, “binding free energy change” read 0.299 kJ/mol.
For `N59L`, “binding free energy change” read 0.811 kJ/mol.
Under “binding free energy change”, `R23A` is recorded as -2.03 kJ/mol.
`Q50K`: “binding free energy change” 0.0148 kJ/mol.
`S17I`: “binding free energy change” 4.07 kJ/mol.
`I86A` — result for “binding free energy change”: 0.369 kJ/mol.

Sample 2
Target: Centromere-binding protein 1, full length, His-tagged (CBF1, Saccharomyces cerevisiae, UniProt P17106, residues 1-351)
Chain of UniProt P17106 (whole entry, looked up): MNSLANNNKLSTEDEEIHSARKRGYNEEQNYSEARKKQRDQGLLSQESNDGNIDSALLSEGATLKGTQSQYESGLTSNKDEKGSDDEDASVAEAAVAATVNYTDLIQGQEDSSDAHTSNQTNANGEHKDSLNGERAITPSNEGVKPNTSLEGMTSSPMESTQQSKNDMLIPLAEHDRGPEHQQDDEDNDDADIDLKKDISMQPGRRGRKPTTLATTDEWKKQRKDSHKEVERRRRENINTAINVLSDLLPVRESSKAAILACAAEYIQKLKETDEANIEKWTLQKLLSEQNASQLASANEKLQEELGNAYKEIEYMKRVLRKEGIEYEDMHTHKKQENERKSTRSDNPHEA
Technique: competition protein-binding microarray
Form: double-stranded DNA, one strand shown
Medium: in vitro
Tested at: 2 µM
Notes: whole 60-bp probe, lowest competitor level
Added: Pho4 competitor, 0.05 µM
Reading: higher = stronger binding
With `CTTCTGTAAATTTGTTTGGTGGGTGGACGCGCCCCGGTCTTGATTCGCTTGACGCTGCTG` the fluorescence intensity was 87.6 a.u.
`AGTTATCTAAGATTCGTCGTGCTTTAAGAGACTTGTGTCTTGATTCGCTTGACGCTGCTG` has a fluorescence intensity of 62.6 a.u.
For `TGCTTACTTGATTGTCATGTGCCTTCGTAGGCAAAGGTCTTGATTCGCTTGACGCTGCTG`, the fluorescence intensity was 438 a.u.
For `AAGGCCATAAAAAGAACCGTGACGGGGCCAAACAGAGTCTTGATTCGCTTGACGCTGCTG`, the fluorescence intensity was 104 a.u.
The fluorescence intensity of `TTGTTCGAAAAAAATAGCGTGCTTTTTGGCCAGAAAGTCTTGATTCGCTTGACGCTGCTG` is reported as 86.4 a.u.
The fluorescence intensity of `TGCGCAACAACTTTTCACGTGTGCTTATGTCTAGAAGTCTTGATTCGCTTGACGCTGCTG` is reported as 544 a.u.
For `AAAGCGGTAATTTGCCTCGTGGGTGCAGATATCTATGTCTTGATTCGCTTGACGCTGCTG`, the fluorescence intensity was 97.5 a.u.
For `CAGTACATTGAAAAGCACGTGACGGAACACCAACTTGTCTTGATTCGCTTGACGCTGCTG`, the fluorescence intensity was 6270 a.u.
With `AAAGCGGTAATTTTTCACGTGCTCTCACATATCTATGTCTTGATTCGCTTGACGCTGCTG` the fluorescence intensity was 1880 a.u.
`TTTTCCGCGCGAAAGCACGTTACCCGGACCCCGTCTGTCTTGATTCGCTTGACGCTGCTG` has a fluorescence intensity of 127 a.u.
For `GTCTTGTCTCATTTTCACGTGGACTTCCCCACTTCAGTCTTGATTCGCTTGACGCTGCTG`, the fluorescence intensity was 499 a.u.
With `AAAGCGGTAATTTGAACTGTGGGTGCAGATATCTATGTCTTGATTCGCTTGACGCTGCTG` the fluorescence intensity was 71.9 a.u.
The fluorescence intensity of `TAAAAAATTTTCGGCCACGTAGTTGTATACTTTTGTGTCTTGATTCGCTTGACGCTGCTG` is reported as 88.6 a.u.
With `CGTCCTAGTGATTTTCACGTGGATTCCATGAGGAAGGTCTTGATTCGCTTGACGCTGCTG` the fluorescence intensity was 619 a.u.
`CGGGGTTAAGTTTTTCACGTGACTTGCTTGCAGCAGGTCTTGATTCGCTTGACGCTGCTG` has a fluorescence intensity of 7030 a.u.
For `TCGGCTTGCAGATCGCACGCACTCAGAGTACGAAATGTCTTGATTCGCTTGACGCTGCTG`, the fluorescence intensity was 78.4 a.u.
For `CTAACGAAGGTTTGATGGGTGGGTGACAAGCCAAGTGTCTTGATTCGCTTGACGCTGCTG`, the fluorescence intensity was 84.6 a.u.
For `ATAACGGTACTTATTTGCATGACGCTCATCAACCCTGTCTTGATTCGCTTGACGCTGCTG`, the fluorescence intensity was 109 a.u.

Sample 3
Target: CCNE1, cyclin fold, Cln2 fusion (human)
Technique: yeast growth competition, sequencing
Medium: yeast
Notes: strong parent motif
Relative to: not given
Reading: higher = stronger binding
Starting sequence: NPAT docking peptide (human); PCHRRVLCFDSTT; partner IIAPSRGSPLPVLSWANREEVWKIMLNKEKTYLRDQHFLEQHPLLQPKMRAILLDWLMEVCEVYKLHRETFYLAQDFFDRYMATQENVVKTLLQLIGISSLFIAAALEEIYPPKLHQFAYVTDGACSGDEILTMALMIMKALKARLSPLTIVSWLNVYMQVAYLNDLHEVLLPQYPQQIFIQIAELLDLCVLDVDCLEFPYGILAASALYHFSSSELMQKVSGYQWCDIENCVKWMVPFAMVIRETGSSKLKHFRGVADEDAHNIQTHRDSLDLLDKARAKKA
For `F9L`, “normalised enrichment score” read 0.031.
For `F9A`, “normalised enrichment score” read 0.331.
For `C8A`, “normalised enrichment score” read 0.919.
`S11A`: “normalised enrichment score” 1.01.
`C2A`: “normalised enrichment score” 2.04.
`R5K`: “normalised enrichment score” 0.892.
For `R5A L7A`, “normalised enrichment score” read -0.101.
`P1A` — result for “normalised enrichment score”: 2.05.
For `T12A`, “normalised enrichment score” read 1.75.
Under “normalised enrichment score”, `R5A` is recorded as 0.259.

Sample 4
Target: Histone acetyltransferase KAT6A, winged helix 1, GST fusion (KAT6A, Homo sapiens, UniProt Q92794, residues 1-85)
Technique: protein binding microarray
Form: double-stranded DNA, one strand shown
Medium: in vitro
Tested at: not given
Notes: 8-mer, flanks averaged, mean of 2 arrays, mostly near background
Relative to: not given
Reading: higher = stronger binding
Residues (chain): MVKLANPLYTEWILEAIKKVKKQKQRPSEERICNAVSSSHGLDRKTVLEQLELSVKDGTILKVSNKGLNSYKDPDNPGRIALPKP
For `CAAGTCCG`, the E-score was 0.119.
`TCGTAGCA` gave an E-score of -0.188.
The E-score of `AACACACG` is reported as 0.0601.
For `ACGCAAAG`, the E-score was -0.0462.
With `ATGAAGTA` the E-score was -0.0596.
The E-score of `GGAGTTTA` is reported as -0.129.
With `CACGAGAA` the E-score was -0.219.
The E-score of `GTTCTCGA` is reported as -0.269.
`CCTTACAA` gave an E-score of -0.0838.
`AACCCGGC` has an E-score of 0.299.
`AGCTTAGA` has an E-score of -0.0913.
With `CCGTGTGC` the E-score was 0.262.
`AGGAATGC` has an E-score of -0.0877.
The E-score of `CGGAACAC` is reported as 0.153.
With `AACCAGCA` the E-score was -0.333.
With `AGTGAGGC` the E-score was -0.216.
For `TATTCCCA`, the E-score was -0.152.
`CAGGTATC` has an E-score of -0.161.
`TCTTCAAA` gave an E-score of -0.186.
`ATCTGAAA` has an E-score of -0.146.
For `CTCCTCGA`, the E-score was -0.266.
The E-score of `TACATCGA` is reported as -0.0287.
`AAACCTCA` has an E-score of -0.128.
With `CACGTACG` the E-score was 0.106.
With `CTTGTCAA` the E-score was -0.0629.

Sample 5
Target: Ras GTPase-activating protein-binding protein 1, full length (G3BP1, Homo sapiens, UniProt Q13283)
Chain of UniProt Q13283 (whole entry, looked up): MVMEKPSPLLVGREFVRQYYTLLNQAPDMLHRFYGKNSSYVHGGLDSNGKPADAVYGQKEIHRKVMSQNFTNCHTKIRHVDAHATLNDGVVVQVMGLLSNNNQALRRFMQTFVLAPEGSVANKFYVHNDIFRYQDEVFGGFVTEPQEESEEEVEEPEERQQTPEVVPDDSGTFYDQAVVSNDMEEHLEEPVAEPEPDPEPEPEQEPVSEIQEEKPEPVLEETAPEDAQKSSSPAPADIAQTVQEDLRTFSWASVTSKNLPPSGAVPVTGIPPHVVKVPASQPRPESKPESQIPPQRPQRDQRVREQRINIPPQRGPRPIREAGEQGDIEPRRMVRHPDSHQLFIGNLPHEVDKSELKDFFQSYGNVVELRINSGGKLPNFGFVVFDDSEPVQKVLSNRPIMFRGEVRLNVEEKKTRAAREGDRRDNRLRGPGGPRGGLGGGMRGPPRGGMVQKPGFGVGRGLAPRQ
Technique: RNA Bind-n-Seq
Form: RNA
Medium: in vitro
Tested at: 200 nM
Notes: whole 134-nt RNA, ends assumed
Added: 150 mM KCl
Relative to: input library
Reading: higher = stronger binding
`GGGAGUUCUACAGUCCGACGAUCGCAGGAAGUAAAAACAAAUGGAAAUGCUUCGGAUAGUGGCAGGGGUGGGGGUUGCUAAGGAAAGGGUGGGAUGGGAGGGGGUAAAGAGUUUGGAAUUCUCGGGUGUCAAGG` has a log2 enrichment of 0.951.
`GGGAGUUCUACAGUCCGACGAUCAGUCCUGUGCUACACAUCGUAUGUACCGAAUCGGGAAAAGGGGAAAAGGGGAAAAGGAAAGUAUUAUGUUACGCCGUUCGGAUCUGCACUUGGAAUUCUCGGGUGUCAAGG` has a log2 enrichment of -0.337.
With `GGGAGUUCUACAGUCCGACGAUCCAAGUCCUGUGCUACACAUCGUAUGUACCGAAUCGGGAAAGGGUUUGGGUUUGGGAAAGUAUUAUGUUACGCCGUUCGGAUCUGCACUUCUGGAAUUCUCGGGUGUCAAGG` the log2 enrichment was 0.602.
`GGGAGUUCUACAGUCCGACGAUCCACAGACAACACGCACCCACACAGACACAGAGGGAAGGGGUUGGGAUGGGGACAGGGUGCACAGCAGGGCGGGGUAGGACCCCAGCAAAUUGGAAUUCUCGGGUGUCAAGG` has a log2 enrichment of 1.92.
`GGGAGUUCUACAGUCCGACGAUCCAAGUCCUGUGCUACACAUCGUAUGUACCGAAUCGGGGUGGGGAGGGGAAAGGGGAAAGUAUUAUGUUACGCCGUUCGGAUCUGCACUUCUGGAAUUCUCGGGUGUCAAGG` has a log2 enrichment of 1.39.
The log2 enrichment of `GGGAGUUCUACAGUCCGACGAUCCAAGUCCUGUGCUACACAUCGUAUGUACCGAAUCGGGAGGGUUUUUUUGGGAGGGAAAGUAUUAUGUUACGCCGUUCGGAUCUGCACUUCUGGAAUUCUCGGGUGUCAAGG` is reported as 0.385.
`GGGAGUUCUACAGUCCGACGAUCUACUAUGAAGCCUUGUGCAAAUCCCUCGACUGGCAGAUAGACGUGGACCUACUCAAUAAAAUGAAGAAGGCAAAUGAAGAUGAGUUGAAGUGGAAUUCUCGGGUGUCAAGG` has a log2 enrichment of -0.215.
`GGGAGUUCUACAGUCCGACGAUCCACAGACAACACGCACCCACACAGACAUAGAGGGAAGGGGUUGGGAUGGGGACAGGGUGCACAGCAGGGCGGGGUAGGACCCCAGCCCCUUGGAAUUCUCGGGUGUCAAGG` gave a log2 enrichment of 1.8.
For `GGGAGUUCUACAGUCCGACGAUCGCAGGAAGUAAAAACAAAUGGAAAUGCUUCGGAUAGAGGCAGGGGUGGGGGUUGCUAAGGAAAGGGUGGGAUGGGAGUGGGUAAAGAGUUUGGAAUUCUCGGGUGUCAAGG`, the log2 enrichment was 1.52.
The log2 enrichment of `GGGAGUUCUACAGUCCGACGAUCUCCUCAAGUCCUGUGCUACACAUCGUAUGUACCGAAUCGGUGGGUGGUGGGGAAAGUAUUAUGUUACGCCGUUCGGAUCUGCACUUCCAGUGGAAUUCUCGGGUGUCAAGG` is reported as 0.454.

Repeated from above (sample 1):
For `G21D`, “binding free energy change” read -4.83 kJ/mol.
`L75I` — result for “binding free energy change”: 0.952 kJ/mol.
Under “binding free energy change”, `S15M` is recorded as 1.1 kJ/mol.
`S46R` — result for “binding free energy change”: -0.299 kJ/mol.
For `F63G`, “binding free energy change” read 7.85 kJ/mol.
For `E42G`, “binding free energy change” read 0.14 kJ/mol.
Under “binding free energy change”, `Q50T` is recorded as 0.377 kJ/mol.
`E11L`: “binding free energy change” -2.13 kJ/mol.
For `D53E`, “binding free energy change” read 2.62 kJ/mol.
`Q57A`: “binding free energy change” -0.589 kJ/mol.
`E11P`: “binding free energy change” 1.87 kJ/mol.
